Experimental data collected from several papers.
Protocols differ between the studies behind these lines.
Target: Cyclin-dependent kinase-like 2 (CDKL2, Homo sapiens, UniProt Q92772)

Compound = C=CC(=O)N1CCCC(n2c(=O)c3ncccc3n(Cc3ccc(Oc4ccccc4)cc3)c2=O)C1 (stereo not shown); assay = cell-free assay, competition with immobilised ligand; setting = 1 µM; measurement = remaining binding; result = 98%
Compound = C=CC(=O)N1CCc2ccc(-n3c(=O)ccc4cnc5ccc(-c6cnn(C)c6)cc5c43)cc21; assay = KINOMEscan; setting = 1 µM; scale = baseline: DMSO control; measurement = remaining binding; result = 100%
Compound = CN1CC[C@@H](COc2cnc(C#N)cc2-c2ccn3nc(NC(=O)C4CC4)cc3c2)C1; assay = enzyme activity, inhibitor; setting = 1 µM; measurement = inhibition; result = 9%
Compound = COc1cc(Nc2nc(C)cc(-c3cnn4nc(OC)ccc34)n2)cc(C(F)(F)F)c1; assay = inhibitor; setting = 1 µM; scale = baseline: control; measurement = remaining activity; result = 100%
Compound = COc1c(Cl)cccc1Nc1c(-c2ccncc2C#C[C@@]2(C)CCCN2C(=O)/C=C/CN(C)C)[nH]c2c1C(=O)NCC2; assay = binding, competition with immobilised ligand; setting = 3 µM; measurement = remaining binding; result = 100%
Compound = CCN1CCN(Cc2ccc(C(=O)Nc3ccc(C)c(NCc4cnc5[nH]ccc5c4OC)c3)cc2C(F)(F)F)CC1; assay = binding, competition with immobilised ligand; setting = 1 µM; measurement = remaining binding; result = 2%
Compound = Cc1cnc2nc1Nc1cccc(c1)COC/C=C/COCc1cc(ccc1OCCN1CCOCC1)N2; assay = binding; setting = 0.1 µM; measurement = remaining binding; result = 95%
Compound = COc1cc(Nc2nccc(-c3cnn4nc(OC)ccc34)n2)cc(C(F)(F)F)c1; assay = binding, competition with immobilised ligand; setting = 1 µM; measurement = remaining binding; result = 84%
Compound = Nc1ncc2c(n1)-c1c([nH]c3ccc(C4=CCOCC4)cc13)CCC2; assay = binding, competition with immobilised ligand; setting = 1 µM; measurement = remaining binding; result = 97%
Compound = O=C(NCC1CCOCC1)c1n[nH]cc1NC(=O)c1c(F)cccc1F; assay = scanMAX; setting = 1 µM; scale = baseline: control; measurement = remaining binding; result = 77%
Compound = CNC(=O)C[C@H](Cc1ccc(C#N)cc1)NC(=O)c1cc(-c2ccc(CN[C@H](C)c3ccc(C)cc3)o2)ccc1Cl; assay = enzyme activity, inhibitor; setting = 1 µM; measurement = activity vs control; result = 99%
Compound = CNC(=O)C1CCN(c2cc(C)c(F)cc2NC(=O)c2ccc(-c3cc(O)ccc3C)c(C)c2)CC1; assay = binding, competition with immobilised ligand; setting = 1 µM; measurement = remaining binding; result = 97%
Compound = Cc1ccc(-c2c(/C=C(\C#N)C(=O)NC(C)C)n(CCCO)c3ncnc(N)c23)cc1; assay = cell-free assay, competition with immobilised ligand; setting = 1 µM; measurement = remaining binding; result = 97%
Compound = O=C(Cc1ccc(OCc2ccccc2)cc1)NC1(C(=O)O)CCN(C(=O)c2ccc(-c3cccc(Cl)c3)cc2)CC1; assay = enzyme activity, inhibitor; setting = 10 µM; measurement = activity vs control; result = 136%
Compound = CC(C)=CC1OC(C)(C)C2C=C3C(=O)C(Cl)=CC(O)C3C3C(O)C4OC4C(=O)C132 (stereo not shown); assay = cell-free assay, competition with immobilised ligand; setting = 10 µM; measurement = remaining binding; result = 100%
Compound = CNC1C[S+]2CC[S+]3CC[S+](C1)[Ru-4]321([N]=C=S)[n]2c3ccc(OC)cc3c3c4c(c5cc(F)c[n+]1c5c32)C(=O)NC4=O (stereo not shown); assay = KinomeScan; setting = 0.1 µM; scale = baseline: untreated; measurement = remaining binding; result = 92%
